Published values of several laboratories.
Each numbered part is a random draw from the data of one study; scales do not carry over between parts.

Sample 1 — technique: protein-binding microarray; form: double-stranded DNA, one strand shown; medium: in vitro; tested at: not given; reading: higher = stronger binding
Target: Protein max, full length (MAX, Homo sapiens, UniProt P61244-2, residues 1-151)
Setting: k-mer, scored over probes, only values ≥0.25
Sequence | E-score
AACATATG | 0.296
ACGTGAAT | 0.304
ACATGGGC | 0.343
ATGTGCAC | 0.368
ATGCGCCA | 0.315
ACGCGTCT | 0.278
GCGTGGAA | 0.401
CCCCGCCC | 0.265
ACACGACC | 0.261
AAGGCGTG | 0.367
GGTGGGGA | 0.258
ATGCTTTC | 0.323
GCGTGTCA | 0.398
CGAGGTCA | 0.281
ATGCGCCG | 0.304
CACGTTCG | 0.296
ATCGCACG | 0.346
CGTGGTGA | 0.355
GTGACTGA | 0.292
CTCGTGGA | 0.425
AACGTGAG | 0.329
CACGTGCC | 0.495
ACGAGGGA | 0.344
ACCCATGC | 0.413
CGTGTCAC | 0.428

Sample 2 — technique: RNA Bind-n-Seq; form: RNA; medium: in vitro; tested at: 365 nM; relative to: no-protein control; reading: higher = stronger binding
Target: RNA binding protein fox-1 homolog 2, RRM domain, GST-SBP tag (RBFOX2, Homo sapiens, UniProt O43251-10, residues 100-194)
Setting: natural RNA segment, single round, ends assumed
All sequences stand within: GGGAGUUCUACAGUCCGACGAUC … UGGAAUUCUCGGGUGCCAA
Sequence | RBNS enrichment (R)
AGUCCUCAGUUAAGGCAAGAAUGCAUGUGUUUCUUAAGAAUGAGUACUCUGCGUUGAUGUUUAUGAGAAGGUGGUCAUUAGAUGCAGUCUUUUCCUUUUUAAUCCCCUCU | 10.5
AUGCCAUACGGCCCUUUAUUGCCAUCCUAUACUUGUAAAUACGAUCCUGCUCUCAAGUGAAAUGAGUUAUAUGAGAUAUAUAUAUAUAUAUUUGGUCUUAACUGGAUUUU | 0.493
AGCUGCAGGUGGCCUGCCACGCCUGCCUGGCCAAGUUUCUGUUCCCCUCCUCCUAAAGUCAAGGUGGGGUGGACAAUGACUUCCACAUCCCUCAGGGCAUAGAGUCCUUG | 0.627
CACACAUAGGUGCGUGUGUGUCUUUUGUAUUUUUUCUCCUCCAAGGAGCUGUGUCAGUGUGGACGUUCUGUUUCAGGGAGUUGGAAAGGAGGGUGUCUGCAGAAGGUGGA | 0.799
AUCUUGCAAUCUCUCCAUACUGGCUCCAUGUUGAAAUUGCUUUUUCCCUCAGGACCCUGGGUAAGAUGGCUACAUUUAAGGUGACUCUGAAUGGUGGGGUUCUAGCUUGG | 0.723
GCUUCCAAUGUUAAUUGAUAAUCUAUAAAUAUCAUUUUGGAAUUUGACUGGUUCACAAAUAUAUCCACAAAAUGUUUGCAUAUGGAAUAAUAGAAGCAUAUAAAACAUUG | 0.821
UUUUGCAUUGACUUGCUUGUUUCCCCUUUGAAACACCUAAAAAUACCUUUCCAAAACAUCGCGAGAGCAUACAUAGACAAAAAUGAAAUAGAAAGCUCUUGCAUGCUUGA | 1.67
GUUAGUGACAUUUUGCAAGUCUCUACAAAAGCUCUUGCCACAGAAUUCACUGCUGCCCUGACUCUUCACCAUCUUUCUUUAGCAAGGUAUUUUGAGCCAUUAAUGAUUUU | 0.427
GCUGACAGGGGCCUUGGCUACAGCUUGUGGAGAUGAUGCCAUCCGAGUGUUUGAGGAAGACCCAGGCUCAGACCCACAGCAGCCCACCUUCUCUCUGACAGCCCAUCUUC | 0.579

Sample 3 — technique: protein-binding microarray; form: double-stranded DNA, one strand shown; medium: in vitro; tested at: 250 nM; setting: 60-bp whole probe; together with: salmon DNA 0.4 mg/ml; relative to: random background probes; reading: higher = stronger binding; all sequences stand within: GCCTAGCAC … GTCTTGATTCGCTTGACGCTGCTG
Target: Interferon regulatory factor 5, full length, phosphomimetic (IRF5, Homo sapiens, UniProt Q13568-2, residues 1-514, K96S/S451D/S453D/S456D/S462D)
Sequence | log fluorescence [z-score]
TCACTCTTCTTTTGCTAACTGTGCTAG | 1.45
GACGATCTCGGTTTCGAGACGTGCTAG | 2.54
GACGGTATCCTTTTCCTGCCGTGCTAG | 0.339
GACGGTTTGCTACTGCTGACGTGCTAG | -0.14
TTAGGAGTGGACTATCGGTTAGTGCTA | 5.41
AAGGAAATCGGTGATCAGTCTGTGCTA | 0.134
AACGGTATCGACACTGGGGACGTGCTA | 2.13
TCAACTTTCTTTCAAATACTGTGCTAG | 3.17
TTAGTTATCAGTCTCGATTAGTGCTAG | 2.28
GACGAACTGAGACTGAAGACGTGCTAG | -0.154
TTAGGTTCCGGTTTCTGTTAGTGCTAG | 5.35
GACGGTTTCGGGTTTCGGGATGTGCTA | 8.33
GTCGGTATCGACACTGGGGACGTGCTA | 2.07
GACGGCCTGGGGTATCGGGACGTGCTA | -0.295
TTAGGACTGGACACTGAGTTAGTGCTA | -0.193
TTAGGTATGGACTATCGGTTAGTGCTA | 5.13
GACGAACTGGGGTATTGAGACGTGCTA | -0.292
TTAGGTATCGGATTGGGTTAGTGCTAG | 2.21
GACGGTATCCTGCTGCTGACGTGCTAG | -0.13
GACGAACTGAGTCTCGAGCCGTGCTAG | -0.254
CTTCATGTTGCTCTCCGGGGGTGCTAG | 1.32
TTAGTTATCAGTTTCGATTAGTGCTAG | 10.3
TTAGATTTCAGACTGGATTAGTGCTAG | 0.345
GTAGGACTGGGTATCGGTTAGTGCTAG | 3.69
CTGTTTTTGCTTTCCTTTATGTGCTAG | 2.21

Sample 4 — technique: RNA Bind-n-Seq; form: RNA; medium: in vitro; tested at: not given; relative to: input RNA pool; reading: higher = stronger binding
Target: RING finger protein unkempt homolog, zinc fingers 1-6, GST-SBP tag (UNK, Homo sapiens, UniProt Q9C0B0, residues 30-357)
Setting: RNA with constant flanks, human and mouse sites, ends assumed
All sequences stand within: GGGAGUUCUACAGUCCGACGAUC … CAACAGAGGAUUGAGCAUCA
Target sequence (chain): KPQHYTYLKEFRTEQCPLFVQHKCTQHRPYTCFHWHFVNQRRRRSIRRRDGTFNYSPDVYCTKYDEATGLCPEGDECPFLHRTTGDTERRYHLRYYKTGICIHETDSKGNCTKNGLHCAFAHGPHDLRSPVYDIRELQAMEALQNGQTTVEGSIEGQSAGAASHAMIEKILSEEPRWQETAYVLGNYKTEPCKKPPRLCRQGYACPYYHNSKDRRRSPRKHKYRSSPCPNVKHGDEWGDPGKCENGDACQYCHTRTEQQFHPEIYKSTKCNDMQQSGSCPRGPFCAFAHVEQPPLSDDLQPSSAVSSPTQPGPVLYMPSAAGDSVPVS
Sequence | bound/input enrichment
CGCCUCAUCUACCGCUCGGGCGGCGAAGACGAAAGUCGGCACGACGCGCUCGACACGCGGGUGCGGGGCGACCUCGGUGGCCCGCAGUUGACUCAUGUUGACCAAGCAAGCUUCCAGGUU | 0.041 ratio
GGCAAGGCUGCCGUUGUGUCCGAGGCACAGGACAGCCAGGUCACAAGCACCAAGAGUAAGUCCUCAGCUGAGGUCAAGUUCGCCAUUAAAAGGACUCUGGUAGGGCCCCGGGGGAGCAGC | 0.141 ratio
CCUGGGACUUUGGUUCAGUGCUUGAGGCUGCCAAAGUUUGCAGAGGAGGAGAAUCUUUGUAUAGACUCAAUAACUCCUUGUGCUGACGGAAUUCAUUUGUUGGUAGGACUGCGGACAUGC | 0.0688 ratio
AGGGAGCAACACAUUCGGAGAGACAAGGCUACCAGCAACAUCUGUACAGCUCAGGCCCUCUUGGCGAAUAUGGCUGCCAUGUUUGCAAUCUACCAUGGUUCCCAUGGGCUGGAGCAUAUU | 0.112 ratio
GUAAUCGACAAGAAACUUCGGAACCUGGAGAAGAAAAAGGGUAAACUUGAUGAUUACCAGGAACGAAUGAAUAAAGGGGAAAGGCUCAAUCAAGACCAGCUGGAUGCCGUAUCUAAGUAC | 0.347 ratio
GGGGUGAGAAAGGAUUUGAAACCAUAAAGUGUUUUAAAGAAAUGAACUCUUCAGAAACAGACUUCCUCCUCUUUUCCUUUCUCCUCUGCUCCACAGCCUGUGCUCUGUUCAGUUCCCAAC | 0.269 ratio
CUCAAAAGGAAGUAAGGAUUUUACAAGACAGAUUAAAAAAAAAUUGUUUUGUCCAAAAUAUAGUUGUUGUUGAUUUUUUUUUAAGUUUUCUAAGCAAUAUUUUUCAAGCCAGAAGUCCUC | 2.49 ratio
ACACUGGGCUCUUUGGAAGCUCUUCUUGAAUUUCUGAAAACAUCAGAGGUGCCAUAUGCAGGAAUUAACAUUGGCCCAGUCCAUAAAAAGGACGUUAUGAAGGCUUCAGUGAUGUUGGAA | 0.156 ratio
GAAAAUGUUUUGUUUUGGCUAGCAUGUGAAGAUUUUAAGAAAAUGCAAGAUAAGACGCAGAUGCAGGAAAAGGCAAAGGAGAUCUACAUGACCUUUCUGUCCAGCAAGGCCUCAUCACAG | 0.181 ratio
AUUGUGGGAGCGCUGAUGGCCAGUGGCAAAGAAGUGGCUGGGAAGAUCCCCAAAGGGAAGUUAGUCGACUUUGAAGCCAUGACAGCCCCUGGCUCAGAGGCCUUCAGCAAAAUAGCAAAA | 0.282 ratio
AGGAACGGUGGGAGUGGGUUAAAUACAGUGUCAGAUUCUUCUUGGAGGCAUAGUCAAGUUCCCAGAUCUUCAUCAAUGGUACUUGGUUCAUUUGGAACAGACUUGAUGAGAGAAAGGAGA | 0.643 ratio

Repeated from above (sample 4):
Sequence | bound/input enrichment
GAAAAUGUUUUGUUUUGGCUAGCAUGUGAAGAUUUUAAGAAAAUGCAAGAUAAGACGCAGAUGCAGGAAAAGGCAAAGGAGAUCUACAUGACCUUUCUGUCCAGCAAGGCCUCAUCACAG | 0.181 ratio
GGCAAGGCUGCCGUUGUGUCCGAGGCACAGGACAGCCAGGUCACAAGCACCAAGAGUAAGUCCUCAGCUGAGGUCAAGUUCGCCAUUAAAAGGACUCUGGUAGGGCCCCGGGGGAGCAGC | 0.141 ratio
AGGGAGCAACACAUUCGGAGAGACAAGGCUACCAGCAACAUCUGUACAGCUCAGGCCCUCUUGGCGAAUAUGGCUGCCAUGUUUGCAAUCUACCAUGGUUCCCAUGGGCUGGAGCAUAUU | 0.112 ratio
AGGAACGGUGGGAGUGGGUUAAAUACAGUGUCAGAUUCUUCUUGGAGGCAUAGUCAAGUUCCCAGAUCUUCAUCAAUGGUACUUGGUUCAUUUGGAACAGACUUGAUGAGAGAAAGGAGA | 0.643 ratio
CGCCUCAUCUACCGCUCGGGCGGCGAAGACGAAAGUCGGCACGACGCGCUCGACACGCGGGUGCGGGGCGACCUCGGUGGCCCGCAGUUGACUCAUGUUGACCAAGCAAGCUUCCAGGUU | 0.041 ratio
GGGGUGAGAAAGGAUUUGAAACCAUAAAGUGUUUUAAAGAAAUGAACUCUUCAGAAACAGACUUCCUCCUCUUUUCCUUUCUCCUCUGCUCCACAGCCUGUGCUCUGUUCAGUUCCCAAC | 0.269 ratio
